Experimental data of several laboratories.
Every numbered part comes from another study and shows a few of its results, in no order. Changes are numbered by the printed parent chain.
UniProt Q7Z7E8, sequence (whole entry, looked up): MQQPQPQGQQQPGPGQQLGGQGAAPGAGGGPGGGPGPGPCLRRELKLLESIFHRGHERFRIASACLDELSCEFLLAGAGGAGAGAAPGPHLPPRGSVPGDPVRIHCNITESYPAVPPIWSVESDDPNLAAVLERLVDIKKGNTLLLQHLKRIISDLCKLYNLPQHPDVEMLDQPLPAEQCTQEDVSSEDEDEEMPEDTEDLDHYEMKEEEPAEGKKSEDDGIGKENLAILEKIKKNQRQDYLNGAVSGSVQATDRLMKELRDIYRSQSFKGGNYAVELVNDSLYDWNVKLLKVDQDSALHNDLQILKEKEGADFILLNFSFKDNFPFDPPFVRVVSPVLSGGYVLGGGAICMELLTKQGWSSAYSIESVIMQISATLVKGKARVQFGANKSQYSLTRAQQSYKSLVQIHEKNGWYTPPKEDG
UniProt O00762, sequence (whole entry, looked up): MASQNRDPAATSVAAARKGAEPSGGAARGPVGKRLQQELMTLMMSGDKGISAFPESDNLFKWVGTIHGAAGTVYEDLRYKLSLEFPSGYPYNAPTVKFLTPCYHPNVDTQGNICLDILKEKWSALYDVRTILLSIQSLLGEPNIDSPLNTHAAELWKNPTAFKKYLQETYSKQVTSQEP
UniProt Q9H832, sequence (whole entry, looked up): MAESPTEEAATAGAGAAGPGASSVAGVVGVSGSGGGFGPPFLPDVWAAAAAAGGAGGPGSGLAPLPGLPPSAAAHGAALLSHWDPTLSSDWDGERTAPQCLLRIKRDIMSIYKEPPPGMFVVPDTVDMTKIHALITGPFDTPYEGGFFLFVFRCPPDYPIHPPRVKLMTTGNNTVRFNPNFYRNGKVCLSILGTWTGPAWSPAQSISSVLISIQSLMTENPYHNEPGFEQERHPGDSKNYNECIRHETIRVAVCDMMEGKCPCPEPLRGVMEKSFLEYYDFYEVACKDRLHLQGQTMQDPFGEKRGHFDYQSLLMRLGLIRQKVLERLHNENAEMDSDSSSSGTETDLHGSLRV
UniProt P68036, sequence (whole entry, looked up): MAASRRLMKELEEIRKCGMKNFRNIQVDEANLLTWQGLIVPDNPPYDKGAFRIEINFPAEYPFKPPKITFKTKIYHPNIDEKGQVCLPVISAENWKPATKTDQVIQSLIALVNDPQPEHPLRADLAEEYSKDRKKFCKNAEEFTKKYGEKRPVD
UniProt Q712K3, sequence (whole entry, looked up): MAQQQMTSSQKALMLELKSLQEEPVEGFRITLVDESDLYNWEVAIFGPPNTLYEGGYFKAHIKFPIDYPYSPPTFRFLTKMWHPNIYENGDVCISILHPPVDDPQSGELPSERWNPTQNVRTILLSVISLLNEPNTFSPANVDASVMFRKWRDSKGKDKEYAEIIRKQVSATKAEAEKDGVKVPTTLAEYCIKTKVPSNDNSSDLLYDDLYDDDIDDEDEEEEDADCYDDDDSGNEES
UniProt Q9C0C9, sequence (whole entry, looked up): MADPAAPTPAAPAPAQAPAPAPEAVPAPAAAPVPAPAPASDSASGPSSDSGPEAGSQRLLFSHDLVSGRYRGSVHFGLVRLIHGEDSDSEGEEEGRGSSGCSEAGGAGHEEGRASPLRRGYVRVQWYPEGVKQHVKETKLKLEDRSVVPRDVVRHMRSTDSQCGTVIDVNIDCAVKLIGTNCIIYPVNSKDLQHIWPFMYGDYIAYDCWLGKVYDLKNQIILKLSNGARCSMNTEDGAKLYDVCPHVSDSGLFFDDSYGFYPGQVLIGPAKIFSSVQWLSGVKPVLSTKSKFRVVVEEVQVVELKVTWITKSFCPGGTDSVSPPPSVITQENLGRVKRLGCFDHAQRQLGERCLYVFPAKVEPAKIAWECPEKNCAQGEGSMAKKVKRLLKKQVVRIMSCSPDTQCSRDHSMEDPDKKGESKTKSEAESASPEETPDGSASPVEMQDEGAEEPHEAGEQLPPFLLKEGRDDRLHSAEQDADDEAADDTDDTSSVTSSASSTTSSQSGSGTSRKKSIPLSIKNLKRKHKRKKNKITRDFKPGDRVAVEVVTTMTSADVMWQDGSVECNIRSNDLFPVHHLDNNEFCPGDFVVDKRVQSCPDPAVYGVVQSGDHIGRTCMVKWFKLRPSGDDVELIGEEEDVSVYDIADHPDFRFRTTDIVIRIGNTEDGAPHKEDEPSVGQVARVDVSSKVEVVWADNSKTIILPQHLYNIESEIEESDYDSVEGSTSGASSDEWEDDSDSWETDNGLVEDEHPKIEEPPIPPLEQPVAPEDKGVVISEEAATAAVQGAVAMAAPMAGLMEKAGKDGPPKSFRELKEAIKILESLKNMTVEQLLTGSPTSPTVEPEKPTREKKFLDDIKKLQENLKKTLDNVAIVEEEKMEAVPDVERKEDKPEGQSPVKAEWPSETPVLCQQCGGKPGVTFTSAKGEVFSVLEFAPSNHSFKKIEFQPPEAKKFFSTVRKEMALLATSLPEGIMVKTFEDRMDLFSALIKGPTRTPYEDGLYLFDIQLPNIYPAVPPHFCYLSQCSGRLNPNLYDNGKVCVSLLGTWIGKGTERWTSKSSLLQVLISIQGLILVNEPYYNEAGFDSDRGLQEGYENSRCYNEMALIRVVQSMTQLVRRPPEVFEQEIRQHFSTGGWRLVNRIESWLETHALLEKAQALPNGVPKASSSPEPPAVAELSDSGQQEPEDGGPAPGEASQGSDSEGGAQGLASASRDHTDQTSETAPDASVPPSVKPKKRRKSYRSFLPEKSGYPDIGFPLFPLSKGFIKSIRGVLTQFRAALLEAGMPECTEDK

Block 1 — technique: aptamer microarray, sandwich; molecule type: DNA with 2'F-ANA; sample: in vitro; tested at: 200 nM; together with: Cy3 exosite-II aptamer, 400 nM; reading: higher = stronger binding; oligonucleotide: GGTTGGTGTGGTTGG
Target: Prothrombin, mature alpha-thrombin (F2, Homo sapiens, UniProt P00734)
Notes: whole 15-mer aptamer, many near background
| Modification | mean fluorescence intensity [a.u.] |
| --- | --- |
| 2'F-ANA at 1 2 10 13 15 | 50.6 |
| 2'F-ANA at 2 4 7 9 10 12 13 15 | 110 |
| 2'F-ANA at 1 3 4 5 6 7 9 11 15 | 55.2 |
| 2'F-ANA at 1 2 4 5 10 12 14 15 | 43.6 |
| 2'F-ANA at 2 5 6 7 12 13 | 109 |
| 2'F-ANA at 2 3 4 5 6 8 11 12 13 14 15 | 262 |
| 2'F-ANA at 2 4 6 7 8 10 11 13 | 84.5 |
| 2'F-ANA at 1 2 3 6 8 9 10 | 62.4 |
| 2'F-ANA at 5 6 9 10 11 12 13 14 15 | 57.3 |
| 2'F-ANA at 2 3 4 6 7 9 10 12 | 286 |
| 2'F-ANA at 2 6 9 10 11 12 13 14 15 | 77.8 |
| 2'F-ANA at 1 9 11 13 14 15 | 107 |
| 2'F-ANA at 6 7 9 10 11 15 | 133 |

Block 2 — technique: RNA Bind-n-Seq; molecule type: RNA; sample: in vitro; tested at: 20 nM; notes: 6-mer, flanks averaged, single round; together with: 150 mM KCl; baseline: input library; reading: higher = stronger binding
Target: TAR DNA-binding protein 43, full length, His tag (TARDBP, Homo sapiens, UniProt Q13148, residues 1-414)
| Oligonucleotide | 6-mer enrichment (R) |
| --- | --- |
| AAAAAC | 0.786 |
| CCGCGA | 0.795 |
| UGAUCC | 0.612 |
| AUAGGG | 2.02 |
| GUCAUG | 0.885 |
| AUAUAU | 0.625 |
| UAAGUG | 0.964 |
| CGGAGG | 3.67 |
| AUUCUC | 0.533 |
| UGACAG | 0.901 |

Block 3 — target: CCNE1, cyclin fold, Cln2 fusion (human); technique: yeast growth competition, sequencing; sample: yeast; notes: strong parent motif; baseline: not given; reading: higher = stronger binding
Parent: RBL2 docking peptide (human); STTRRRLFVENDS; partner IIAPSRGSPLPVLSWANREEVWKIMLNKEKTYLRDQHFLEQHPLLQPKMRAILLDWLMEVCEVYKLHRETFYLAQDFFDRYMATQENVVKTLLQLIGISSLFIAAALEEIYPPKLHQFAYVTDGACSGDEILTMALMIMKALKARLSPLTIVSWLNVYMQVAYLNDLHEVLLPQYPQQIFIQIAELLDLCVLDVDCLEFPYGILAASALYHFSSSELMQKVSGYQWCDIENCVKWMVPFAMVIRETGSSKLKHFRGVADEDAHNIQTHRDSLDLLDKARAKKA
| Change | normalised enrichment score |
| --- | --- |
| STTRKRLFVENDS [R5K] | 1.87 |
| STSRRRLFVENDS [T3S] | 2.59 |
| SYTRRRLFVENDS [T2Y] | 5.5 |
| STTRRRSFVENDS [L7S] | 0.33 |
| STTRRRLAVENDS [F8A] | -0.115 |
| STTHRRLFVENDS [R4H] | 1.2 |
| STTRRRLFVEFDS [N11F] | 5.36 |
| STTRRRLFVLNDS [E10L] | 1.85 |
| STTRRTLFVENDS [R6T] | 1.54 |
| STTRRRLFVEHDS [N11H] | 5.16 |

Block 4 — technique: universal PBM; molecule type: double-stranded DNA, one strand shown; sample: in vitro; tested at: not given; reading: higher = stronger binding
Target: Sal-like protein 4, full length isoform B (SALL4, Homo sapiens, UniProt Q9UJQ4-2, residues 1-616)
Notes: 8-mer, flanks averaged, mean of replicates
| Oligonucleotide | E-score |
| --- | --- |
| ATGTACAG | 0.137 |
| ACGGGGCA | -0.172 |
| GGATAGCC | -0.22 |
| CCGAAGGC | -0.183 |
| ATCCGCCG | -0.227 |
| CGTTGTCC | 0.00824 |
| AGAATGGG | -0.0563 |
| GATGGACA | -0.0662 |
| CCCACCCA | -0.114 |
| GGAATCCA | -0.105 |
| CAAACGGA | -0.161 |
| CCTTACGC | -0.0334 |
| TCAAAAGA | 0.0892 |
| AGCGAAGA | 0.0135 |

Block 5 — technique: DHFR PCA, deep sequencing; sample: yeast; together with: (+)-ABA 17 µM; baseline: wild-type fitted maximum; reading: higher = stronger binding
Target: ABI1, truncated, D143A, DHFR fusion (Arabidopsis thaliana)
Notes: methotrexate growth selection, single substitutions
Parent: PYL1, truncated, DHFR fusion (Arabidopsis thaliana); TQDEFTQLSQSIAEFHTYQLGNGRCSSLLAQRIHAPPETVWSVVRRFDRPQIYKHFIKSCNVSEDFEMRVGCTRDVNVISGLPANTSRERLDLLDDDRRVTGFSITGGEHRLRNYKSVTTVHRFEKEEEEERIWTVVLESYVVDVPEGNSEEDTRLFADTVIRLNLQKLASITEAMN; partner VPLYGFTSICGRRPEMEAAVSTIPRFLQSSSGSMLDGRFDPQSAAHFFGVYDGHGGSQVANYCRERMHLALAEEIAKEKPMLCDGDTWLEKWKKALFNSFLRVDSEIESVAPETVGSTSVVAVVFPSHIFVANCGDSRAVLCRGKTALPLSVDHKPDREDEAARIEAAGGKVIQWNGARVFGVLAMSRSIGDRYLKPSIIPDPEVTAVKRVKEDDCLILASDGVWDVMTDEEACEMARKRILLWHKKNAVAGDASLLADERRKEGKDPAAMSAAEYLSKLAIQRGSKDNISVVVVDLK
| Change | relative binding score [%] |
| --- | --- |
| Y53Q | 1.3 |
| T119H | 4.18 |
| V43Y | 62.9 |
| P37E | 47.5 |
| N165Q | -13.7 |
| G21C | 75.2 |
| A13F | 63.4 |
| D75K | 81.3 |
| G148E | 53.2 |
| T86S | 83.9 |

Block 6 — Sequence: B1 (PRKN RING domain); technique: yeast two-hybrid; sample: yeast; notes: mostly zero background; baseline: not given; reading: higher = stronger interaction
B1: PRKN RING domain (UniProt O60260); chain LIATNSRNITCITCTDVRSPVLVFQCNSRHVICLDCFHLYCVTRLNDRQFVHDPQLGYSLPCVAGCPNSLIKELHH
| target | lacZ reporter activity |
| --- | --- |
| UBE2R2 UBC core domain (UniProt Q712K3) | 0 |
| BIRC6 UBC core domain (UniProt Q9NR09) | 0 |
| UBE2L3 UBC core domain (UniProt P68036) | 0 |
| UBE2Z UBC core domain (UniProt Q9H832) | 0 |
| UBE2I UBC core domain (UniProt P63279) | 0 |
| UBE2C UBC core domain (UniProt O00762) | 0 |
| UBE2Q1 UBC core domain (UniProt Q7Z7E8) | 0 |
| UBE2O UBC core domain (UniProt Q9C0C9) | 0 |

Block 7 — technique: RNA Bind-n-Seq; molecule type: RNA; sample: in vitro; tested at: 200 nM; notes: whole 134-nt RNA, ends assumed; together with: 150 mM LiCl; baseline: input library; reading: higher = stronger binding; library: 7-deaza-guanosine replaces G
Target: Fragile X messenger ribonucleoprotein 1, C-terminal low-complexity region (Fmr1, Mus musculus, UniProt P35922)
Constant ends, left off below: GGGAGUUCUACAGUCCGACGAUC … UGGAAUUCUCGGGUGUCAAGG
| Oligonucleotide | log2 enrichment |
| --- | --- |
| CAAGUCCUGUGCUACACAUCGUAUGUACCGAAUCGGAAAAAAAGGAGGUUUUUGGAAAGUAUUAUGUUACGCCGUUCGGAUCUGCACUUC | -1.62 |
| CUGUGCUACACAUCGUAUGUACCGAAUCGGCCCCCCCGGGGCCCCCCCGGGGCCCCCCCGGAAAGUAUUAUGUUACGCCGUUCGGAUCUG | -1.22 |
| AGUCCUGUGCUACACAUCGUAUGUACCGAAUCGGGAAAAAGGAAAAAGGAAAAAGGGAAAGUAUUAUGUUACGCCGUUCGGAUCUGCACU | -1.56 |
| AAGUCCUGUGCUACACAUCGUAUGUACCGAAUCGGGGUGGGGAAAGGGGUUUGGGGAAAGUAUUAUGUUACGCCGUUCGGAUCUGCACUU | -1.48 |
| UGUGCUACACAUCGUAUGUACCGAAUCGGGGAAAAAAAGGGGAAAAAAAGGAAAAAAAGGGGAAAGUAUUAUGUUACGCCGUUCGGAUCU | 0.673 |
| UGAAAAGAACUGCUCUCCAUGGAGAGAGUAACUCUGUCCUUAUUAUCGGACCCCGAGGAUCAGGAAAAACUAUGGUAAAAGCUGUUGAUU | -3.71 |
| GAAAGAAGUAAAAACAAAUGGAAAUGCUUCGGAUAGUGGCAGGGGUGGGGGUUGCUAAGGAAAGGGUGGGAUGGGAGUGGGUAAAGAGUU | 0.952 |
| CUGUGCUACACAUCGUAUGUACCGAAUCGGGGCCCCCCCGGCCCCCCCGGGGCCCCCCCGGAAAGUAUUAUGUUACGCCGUUCGGAUCUG | -0.445 |

Mixed results — technique: cross-linking MS
| Molecule | partner | test system | setting | measurement | value |
| --- | --- | --- | --- | --- | --- |
| SEPTIN7 (Homo sapiens, UniProt Q16181) | SEPTIN9 (Homo sapiens, UniProt Q9UHD8) | cell fractions | together with: DHSO | cross-linked residues | D74 to E452 |
| NUP214 (Homo sapiens, UniProt P35658) | NUP62 (Homo sapiens, UniProt P37198) | cell fractions | together with: DMTMM | cross-linked residues | E813 to K445 |
| ANKRD17 (Homo sapiens, UniProt O75179) | FRAS1 (Homo sapiens, UniProt Q86XX4) | cell fractions | together with: DSSO | cross-linked residues | K828 to K2217 |
| SEC61B (Homo sapiens, UniProt P60468) | LRRC59 (Homo sapiens, UniProt Q96AG4) | – | hits only | interaction screen | cross-linked |

Excerpt of the above (block 3):
| Change | normalised enrichment score |
| --- | --- |
| STTRRRLAVENDS [F8A] | -0.115 |
| STTRRRLFVEHDS [N11H] | 5.16 |
| STTRRRLFVLNDS [E10L] | 1.85 |
| STTRRRSFVENDS [L7S] | 0.33 |
| STSRRRLFVENDS [T3S] | 2.59 |
| STTRKRLFVENDS [R5K] | 1.87 |
| STTHRRLFVENDS [R4H] | 1.2 |
| SYTRRRLFVENDS [T2Y] | 5.5 |
